Measurements pooled from the literature.
Values joined by “and” are separate records of one study, mostly repeats; a detail may differ. Numbers after ± are the reported error.
Technique: steady-state kinetics
B1: SUOX R529M/V531M/Y400N (Homo sapiens, UniProt P51687); chain ESTHIYTKEEVSSHTSPETGIWVTLGSEVFDVTEFVDLHPGGPSKLMLAAGGPLEPFWALYAVHNQSHVRELLAQYKIGELNPEDKVAPTVETSDPYADDPVRHPALKVNSQRPFNAEPPPELLTENYITPNPIFFTRNHLPVPNLDPDTYRLHVVGAPGGQSLSLSLDDLHNFPRYEITVTLQCAGNRRSEMTQVKEVKGLEWRTGAISTARWAGARLCDVLAQAGHQLCETEAHVCFEGLDSDPTGTAYGASIPLARAMDPEAEVLLAYEMNGQPLPRDHGFPVRVVVPGVVGARHVKWLGRVSVQPEESYSHWQRRDNKGFSPSVDWETVDFDSAPSIQELPVQSAITEPRDGETVESGEVTIKGYAWSGGGRAVIRVDVSLDGGLTWQVAKLDGEEQRPRKAWAWRLWQLKAPVPAGQKELNIVCKAVDDGYNVQPDTVAPIWNLMGMLSNAWHRVHVYVSP
B2: CstB (Staphylococcus aureus, UniProt G5ELA4); chain MFFKQFYDNHLSQASYLVGCQRTGEAIIIDPVRDLSKYIEVADSEGLTITQATETHIHADFASGIRDVAKRLNANIYVSGEGEDALGYKNMPSKTQFVKHGDIIQVGNVKLEVLHTPGHTPESISFLLTDLGGGSSVPMGLFSGDFIFVGDIGRPDLLEKSVQIKGSTEISAKQMYESVQNIKNLPDYVQIWPGHGAGSPCGKALGAIPISTIGYEKINNWAFNEIDETKFIESLTSNQPAPPHHFAQMKQVNQFGMNLYQSYDVYPSLDNKRVAFDLRSKEAFHGGHTKGTINIPYNKNFINQIGWYLDFEKDIDLIGDKSTVEKAKHTLQLIGFDKVAGYRLPKSGISTQSVHSADMTGKEEHVLDVRNDEEWNNGHLDQAVNIPHGKLLNENIPFNKEDKIYVHCQSGVRSSIAVGILESKGFENVVNIREGYQDFPESLK
B3: Tcur_2987 Y332L (Thermomonospora curvata, UniProt D1A807); chain ACSEERAAGARPSATQTTGTATEPFHGPHQAGIATPPQAHAVFLGLDLRKGTGRKELGRLMRLLTDDARRLTQGRPALADPEPDLAPLPSRLTFTFGFGPGLFKAAGLEKQRPEGLRPLPPFKVDRLEDRWSGGDLLVQICCDDPITLAHALRMTVKDARAFTRVRWVQRGFRRSPGVQSSGATQRNLMGQLDGTVNPVPGTADFDQAVWVQDGPEWLRGGTTLVLRRIRMELEKWDEADPAGKEFAVGRRLTSGAPLTGRHEHDEPDFDAVDSAGFPVIAENAHIRLAHVDSPRLRMLRRPYNLDEGLTADGRSDAGLLFAAYQADIDRQFIPVQRRLDEGGDLLNLWTTPIGSAVFAIPPGCDENGWIGQGLLG
B4: HARS1 Y454S (Homo sapiens, UniProt P12081); chain MAERAALEELVKLQGERVRGLKQQKASAELIEEEVAKLLKLKAQLGPDESKQKFVLKTPKGTRDYSPRQMAVREKVFDVIIRCFKRHGAEVIDTPVFELKETLMGKYGEDSKLIYDLKDQGGELLSLRYDLTVPFARYLAMNKLTNIKRYHIAKVYRRDNPAMTRGRYREFYQCDFDIAGNFDPMIPDAECLKIMCEILSSLQIGDFLVKVNDRRILDGMFAICGVSDSKFRTICSSVDKLDKVSWEEVKNEMVGEKGLAPEVADRIGDYVQQHGGVSLVEQLLQDPKLSQNKQALEGLGDLKLLFEYLTLFGIDDKISFDLSLARGLDYYTGVIYEAVLLQTPAQAGEEPLGVGSVAAGGRYDGLVGMFDPKGRKVPCVGLSIGVERIFSIVEQRLEALEEKIRTTETQVLVASAQKKLLEERLKLVSELWDAGIKAELLYKKNPKLLNQLQSCEEAGIPLVAIIGEQELKDGVIKLRSVTSREEVDVRREDLVEEIKRRTGQPLCIC
B5: LYPLA1 (Homo sapiens, UniProt O75608); chain MCGNNMSTPLPAIVPAARKATAAVIFLHGLGDTGHGWAEAFAGIRSSHIKYICPHAPVRPVTLNMNVAMPSWFDIIGLSPDSQEDESGIKQAAENIKALIDQEVKNGIPSNRIILGGFSQGGALSLYTALTTQQKLAGVTALSCWLPLRASFPQGPIGGANRDISILQCHGDCDPLVPLMFGSLTVEKLKTLVNPANVTFKTYEGMMHSSCQQEMMDVKQFIDKLLPPID
B6: asnB E349D (Escherichia coli, UniProt P22106); chain CSIFGVFDIKTDAVELRKKALELSRLMRHRGPDWSGIYASDNAILAHERLSIVDVNAGAQPLYNQQKTHVLAVNGEIYNHQALRAEYGDRYQFQTGSDCEVILALYQEKGPEFLDDLQGMFAFALYDSEKDAYLIGRDHLGIIPLYMGYDEHGQLYVASEMKALVPVCRTIKEFPAGSYLWSQDGEIRSYYHRDWFDYDAVKDNVTDKNELRQALEDSVKSHLMSDVPYGVLLSGGLDSSIISAITKKYAARRVEDQERSEAWWPQLHSFAVGLPGSPDLKAAQEVANHLGTVHHEIHFTVQEGLDAIRDVIYHIETYDVTTIRASTPMYLMSRKIKAMGIKMVLSGDGSDEVFGGYLYFHKAPNAKELHEETVRKLLALHMYDCARANKAMSAWGVEARVPFLDKKFLDVAMRINPQDKMCGNGKMEKHILRECFEAYLPASVAWRQKEQFSDGVGYSWIDTLKEVAAQQVSDQQLETARFRFPYNTPTSKEAYLYREIFEELFPLPSAAECVPGGPSVACSSAKAIEWDEAFKKMDDPSGRAVGVHQSAYK
B7: enzyme (Streptomyces filamentosus, UniProt A0ABY4UVI6); chain MEHRIDADLLIPGAGEPTVNGSVVHADGRIRFAGPTAELPREHRALEPTRVATLLPGLWDCHVHFAGIRGRVSTEELMLTPETLAVVRSVKDAETALRAGFTSVRDMGGHGCVLAEAVREGTFTGPNIYSANQVIGQTGGHSDAHRLPYRWVTDPCRSGGTLRIADGVDECVRAVRLQLRAGAELIKICTSGGVLSEVDNPVHQQYRSEELNAIVTEAARADRVVAAHCHGRAGILAAIDAGCHTVEHGTEIDERTADLMAERGMTLVPTRTIYEAFRQDVAALPPAWRDRFALMAERHLTAIGIAHRAGVTIALGTDLGTSDRGGPLSWGGHGSEFAHLVSAGLSPLEAIKAATAHGPGTLGPRAPRSGRLEAGYDADLLAVDGNPLADITVLADPDRITRVWKSGEPVPSG

`B1 (SUOX R529M/V531M/Y400N)` has a kcat/Km of 35000 M⁻¹ s⁻¹ (O=[N+]([O-])O; pH 7, 25 °C, with: dithionite-reduced methyl viologen).
`BaiA1 (Clostridium scindens, UniProt P07914)` gave a kcat/Km of 60400 M⁻¹ s⁻¹ (C[C@H](CCC(=O)SCCNC(=O)CCNC(=O)[C@H](O)C(C)(C)COP(=O)(O)OP(=O)(O)OC[C@H]1O[C@@H](n2cnc3c(N)ncnc32)[C@H](O)[C@@H]1OP(=O)(O)O)[C@H]1CC[C@H]2[C@@H]3[C@H](O)C[C@@H]4CC(=O)CC[C@]4(C)[C@H]3C[C@H](O)[C@]12C; pH 8.7, 37 °C, with: NADH).
`B2 (CstB)` has a kcat/Km of 10900 ± 2800 M⁻¹ s⁻¹ (N[C@@H](CSS)C(=O)N[C@H]1[C@@H](O[C@@H](CC(=O)O)C(=O)O)O[C@H](CO)[C@@H](O)[C@@H]1O; pH 6, 25 °C, NaBr 100 mM, air-saturated, with: Fe(II), O2).
`enzyme (Arabidopsis thaliana, UniProt Q9STE6)` has a kcat/Km of 21300 M⁻¹ s⁻¹ (CC(=O)N[C@H]1[C@@H](OP(=O)(O)OP(=O)(O)OC[C@H]2O[C@@H](n3ccc(=O)[nH]c3=O)[C@H](O)[C@@H]2O)O[C@H](CO)[C@@H](O)[C@@H]1O; pH 7.5, 25 °C).
For `enzyme (Mus musculus, UniProt P08680)`, the kcat/Km was 250000 ± 30000 M⁻¹ s⁻¹ (CC(C)(COP(=O)(O)OP(=O)(O)OC[C@H]1O[C@@H](n2cnc3c(N)ncnc32)[C@H](O)[C@@H]1OP(=O)(O)O)[C@@H](O)C(=O)NCCC(=O)NCCSC(=O)CCC(=O)O; pH 7.5, 37 °C).
For `B3 (Tcur_2987 Y332L)`, the kcat/Km was 2.5e+06 M⁻¹ s⁻¹ (Nc1c(S(=O)(=O)O)cc(Nc2cccc(S(=O)(=O)CCOS(=O)(=O)O)c2)c2c1C(=O)c1ccccc1C2=O; pH 3, sigmoidal kinetics, with: H2O2 1 mM).
With `Ptb (Listeria monocytogenes, UniProt Q8Y7B7)` the kcat/Km was 2.14e+07 M⁻¹ s⁻¹ (CC(C)C(=O)SCCNC(=O)CCNC(=O)[C@H](O)C(C)(C)COP(=O)(O)OP(=O)(O)OC[C@H]1O[C@@H](n2cnc3c(N)ncnc32)[C@H](O)[C@@H]1OP(=O)(O)O; pH 7.5, 25 °C, apparent).
With `CYP6A8 (Drosophila melanogaster, UniProt Q27593)` the kcat/Km was 112 ± 28.3 M⁻¹ s⁻¹ (CCCCCCCCCC(=O)O; DLPC; pH 7.4, 37 °C, total hydroxylation, with: P450 reductase, NADPH).
The Km of `UGT1A9 (Homo sapiens, UniProt O60656)` is reported as 0.98 µM and 1.61 µM (COc1cc(-c2oc3cc(O)cc(O)c3c(=O)c2O)cc(OC)c1O; pH 7.4, 37 °C).
The kcat/Km of `B4 (HARS1 Y454S)` is reported as 1.2e+06 ± 400000 M⁻¹ s⁻¹ (N[C@@H](Cc1c[nH]cn1)C(=O)O; pH 7.5, 37 °C, KCl 150 mM, with: tRNA(His)).
For `rebH (Lentzea aerocolonigenes, UniProt Q8KHZ8)`, the kcat/Km was 1.51 M⁻¹ s⁻¹ (c1ccc2c3c([nH]c2c1)CNCC3; with: glucose dehydrogenase regeneration).
For `B5 (LYPLA1)`, the kcat/Km was 3200 M⁻¹ s⁻¹ (CN(C)c1ccc(/N=N/c2ccc(C(=O)NCCCn3cc(CCCCCCCCCCCCCCCC(=O)SC[C@H](NC(=O)c4cc5ccc(O)cc5oc4=O)C(=O)N4CCOCC4)nn3)cc2)cc1; pH 7.4, 37 °C).
For `protein (Shewanella denitrificans, UniProt Q12KT8)`, the kcat/Km was 98000 M⁻¹ s⁻¹ (Cc1cn([C@H]2C[C@H](O)[C@@H](COP(=O)(O)OP(=O)(O)O[C@H]3O[C@H](C)C(=O)[C@H](O)[C@H]3O)O2)c(=O)[nH]c1=O; pH 7.5, with: NADPH 0.2 mM).
The kcat/Km of `enzyme (Helicobacter pylori, UniProt O24890)` is reported as < 0.0377 M⁻¹ s⁻¹ ([H]/N=C(/N)N[C@H]1[C@H](O)[C@@H](O)[C@H](O[C@@H]2O[C@@H](C)[C@](O)(C=O)[C@H]2O[C@@H]2O[C@@H](CO)[C@H](O)[C@@H](O)[C@@H]2NC)[C@@H](N/C(N)=N\[H])[C@@H]1O; pH 8, 37 °C).
`enzyme (Acetivibrio thermocellus, UniProt A3DC45)` has a kcat/Km of 4e+06 M⁻¹ s⁻¹ (NC(=O)c1ccc[n+]([C@@H]2O[C@H](COP(=O)(O)OP(=O)(O)OC[C@H]3O[C@@H](n4cnc5c(N)ncnc54)[C@H](OP(=O)(O)O)[C@@H]3O)[C@@H](O)[C@H]2O)c1; pH 8, 25 °C, cofactor varied, per site).
With `B6 (asnB E349D)` the kcat/Km was 3450 M⁻¹ s⁻¹ (N[C@@H](CC(=O)O)C(=O)O; pH 8, 37 °C, apparent, with: L-glutamine 20 mM).
The kcat/Km of `B7 (enzyme)` is reported as 111 M⁻¹ s⁻¹ (CSc1c(O)cc(-c2ccccn2)nc1C(=O)N[C@@H](CC(C)C)C(=O)O; pH 8, 30 °C).
With `vioC (Streptomyces vinaceus, UniProt Q6WZB0)` the kcat/Km was 1970 ± 785 M⁻¹ s⁻¹ (N=C(N)NCCCC[C@H](N)C(=O)O; pH 8, 30 °C, with: alpha-ketoglutarate 1.0 mM).
